Measurements of several laboratories.
Each line is one published result; not all experiments were run side by side. ± marks the error that the study gave.
Cell line: SH-SY5Y

SMILES | test | conditions | how to read | measurement | value
CC[C@@]1(c2ccccc2)C2=C(CC(C)(C)CC2=O)Nc2n[nH]cc21 | β-catenin nuclear translocation | 6 h | – | EC50 | > 20 µM
Cc1c(C)c(C)[c-](C)c1C.O=C1c2cccc[n+]2[Ir]([Cl])[N]1CCCCCCCCCC[P+](c1ccccc1)(c1ccccc1)c1ccccc1.[Br-] | – | concentration not given, added: MPP+ | – | NAD+ level | 55%
CC(C)C[C@@H]1NC(=O)[C@H](CC(C)C)NC(=O)[C@H](Cc2ccc(O)cc2)NC(=O)[C@@H](N)CCCNC(=O)[C@H](CCCCN)NC(=O)[C@H](C(C)C)NC(=O)[C@H]([C@@H](C)O)NC(=O)[C@H](CC(C)C)N(C)C(=O)[C@H]([C@@H](C)O)NC(=O)[C@H](C(C)C)NC(=O)[C@H](CCCCN)NC(=O)[C@@H](N)CCCNC(=O)[C@H](CCC(=O)O)NC(=O)[C@H]([C@@H](C)O)NC(=O)[C@H](Cc2ccc(O)cc2)NC(=O)[C@H](Cc2ccc(I)cc2)NC1=O | cytotoxicity | 25 µM | – | LDH release | 38 ± 5%
COc1ccc(NC(=O)COc2ccc(/C=C/C(C)=N/O)cc2OC)cc1 | flow cytometry | 40 µM, added: amyloid beta 10 µM | – | IL-6 expressing cells | 6.52%
Cc1cc(NC(=O)c2cccc(-n3cc(NC(=O)Nc4ccccc4Cl)cn3)c2)ccn1 | in-cell Western, measured: phospho-c-Jun | pretreatment 1 h, added: 35 µM 6-OHDA | – | IC50 | 0.866 ± 0.204 µM
CCCC[C@H]1C(=O)N[C@@H]([C@@H](C)O)C(=O)N[C@@H](C(C)C)C(=O)N[C@@H](CCCCN)C(=O)NCCC[C@H](N)C(=O)N[C@@H](Cc2ccc(O)cc2)C(=O)N[C@@H](CC(C)C)C(=O)N[C@@H](CC(C)C)C(=O)N[C@@H](Cc2ccc(I)cc2)C(=O)N[C@@H](Cc2ccc(O)cc2)C(=O)N[C@@H]([C@@H](C)O)C(=O)N[C@@H](CCC(=O)O)C(=O)NCCC[C@H](N)C(=O)N[C@@H](CCCCN)C(=O)N[C@@H](C(C)C)C(=O)N[C@@H]([C@@H](C)O)C(=O)N1C | cytotoxicity | 25 µM | – | LDH release | 36 ± 4%
COc1c(C)c(OC(=O)c2ccccc2)c(C)c(OC(=O)c2ccccc2)c1C(=O)/C=C/c1ccccc1 | cell growth or viability, SRB | 72 h | – | IC50 | 25.3 µM
CCCCCCCCCC[N]1C(=O)c2cccc[n+]2[Ir]1[Cl].Cc1c(C)c(C)[c-](C)c1C | SRB | 5 µM, 3 h, added: aldehyde Ia 20 µM, 24 h | relative to: aldehyde Ia alone | viability fold enhancement | 1.7 fold
CC[C@H](C)[C@H]1C(=O)N[C@@H](C)C(=O)N[C@@H](C(C)C)C(=O)N[C@@H](CCCCN)C(=O)NCCC[C@H](N)C(=O)N[C@@H](Cc2ccc(O)cc2)C(=O)N[C@@H](CC(C)C)C(=O)N[C@@H](CC(C)C)C(=O)N[C@@H](Cc2ccc(I)cc2)C(=O)N[C@@H](Cc2ccc(O)cc2)C(=O)N[C@@H]([C@@H](C)O)C(=O)N[C@@H](CCC(=O)O)C(=O)NCCC[C@H](N)C(=O)N[C@@H](CCCCN)C(=O)N[C@@H](C(C)C)C(=O)N[C@@H](C)C(=O)N1C | cytotoxicity | 25 µM | – | LDH release | 18 ± 2%
CCCC(=O)Oc1c(C)c(OC)c2c(/C=C/c3ccccc3)c(CC)c(=O)oc2c1C | cell growth or viability, SRB | 72 h | – | IC50 | > 50 µM
CC(C)C[C@@H]1NC(=O)[C@H](CC(C)C)NC(=O)[C@H](Cc2ccc(O)cc2)NC(=O)[C@@H](N)CCCNC(=O)[C@H](CCCCN)NC(=O)[C@H](C(C)C)NC(=O)[C@H](C)NC(=O)[C@H](C(C)C)N(C)C(=O)[C@H](C)NC(=O)[C@H](C(C)C)NC(=O)[C@H](CCCCN)NC(=O)[C@@H](N)CCCNC(=O)[C@H](CCC(=O)O)NC(=O)[C@H]([C@@H](C)O)NC(=O)[C@H](Cc2ccc(O)cc2)NC(=O)[C@H](Cc2ccc(I)cc2)NC1=O | cytotoxicity | 25 µM | – | LDH release | 22 ± 5%
Cc1c(C)c(C)[c-](C)c1C.O=C1c2cccc[n+]2[Ir]([Cl])[N]1CCCCCCCCCC[P+](c1ccccc1)(c1ccccc1)c1ccc2ccc3cccc4ccc1c2c34.[Br-] | SRB | concentration not given, added: 4-hydroxynonenal 150 µM | relative to: 4-hydroxynonenal alone | cell viability | 1.4 fold
Cc1ccc(NC(=O)Nc2cnn(-c3cccc(C(=O)Nc4ccnc(C)c4)c3)c2)cc1 | in-cell Western, measured: phospho-c-Jun | pretreatment 1 h, added: 35 µM 6-OHDA | – | IC50 | 3.03 ± 1.08 µM
Cc1c(C)c(C)[c-](C)c1C.O=C(CCC[N-]C(=O)c1ccccn1)NCc1ccc2ccc3cccc4ccc1c2c34.[Cl-].[Ir+3] | cell growth or viability, SRB | 24 h | – | IC50 | 32 µM
O=C(O)CCCOc1ccc(F)cc1-c1cc(-c2ccccc2C(F)(F)F)n(-c2ccccc2)n1 | – | 0.3 µM, added: rotenone | – | VDAC1 oligomerization | decreased
Cc1cc(NC(=O)c2cccc(-n3cc(NC(=O)Nc4ccc(F)cc4)cn3)c2)ccn1 | in-cell Western, measured: phospho-c-Jun | pretreatment 1 h, added: 35 µM 6-OHDA | – | IC50 | > 10 µM
N#Cc1ccc2[nH]c(O)c(-c3ccc(CN4CCOCC4)cn3)c2c1 | β-catenin nuclear translocation | 6 h | – | EC50 | 3.27 µM
CCCC[C@H]1C(=O)N[C@@H](C)C(=O)N[C@@H](C(C)C)C(=O)N[C@@H](CCCCN)C(=O)NCCC[C@H](N)C(=O)N[C@@H](Cc2ccc(O)cc2)C(=O)N[C@@H](CC(C)C)C(=O)N[C@@H](CC(C)C)C(=O)N[C@@H](Cc2ccc(I)cc2)C(=O)N[C@@H](Cc2ccc(O)cc2)C(=O)N[C@@H]([C@@H](C)O)C(=O)N[C@@H](CCC(=O)O)C(=O)NCCC[C@H](N)C(=O)N[C@@H](CCCCN)C(=O)N[C@@H](C(C)C)C(=O)N[C@@H](C)C(=O)N1C | cytotoxicity | 25 µM | – | LDH release | 44 ± 7%

Some of these lines once more:
SMILES | test | conditions | how to read | measurement | value
CCCC[C@H]1C(=O)N[C@@H]([C@@H](C)O)C(=O)N[C@@H](C(C)C)C(=O)N[C@@H](CCCCN)C(=O)NCCC[C@H](N)C(=O)N[C@@H](Cc2ccc(O)cc2)C(=O)N[C@@H](CC(C)C)C(=O)N[C@@H](CC(C)C)C(=O)N[C@@H](Cc2ccc(I)cc2)C(=O)N[C@@H](Cc2ccc(O)cc2)C(=O)N[C@@H]([C@@H](C)O)C(=O)N[C@@H](CCC(=O)O)C(=O)NCCC[C@H](N)C(=O)N[C@@H](CCCCN)C(=O)N[C@@H](C(C)C)C(=O)N[C@@H]([C@@H](C)O)C(=O)N1C | cytotoxicity | 25 µM | – | LDH release | 36 ± 4%
COc1c(C)c(OC(=O)c2ccccc2)c(C)c(OC(=O)c2ccccc2)c1C(=O)/C=C/c1ccccc1 | cell growth or viability, SRB | 72 h | – | IC50 | 25.3 µM
